Earlier results as cited in several papers.
Numbered parts are unrelated; values within a part may stem from several laboratories. ± gives the spread as reported.

Series 1
Target: COX-1
SMILES | IC50 [µM]
O=C(O)COc1ccc(Br)cc1/C=N/NC(=O)CNc1ccccc1 | 7 ± 0.2
O=C(O)COc1ccc(Br)cc1/C=N/NC(=O)CNc1ccc(Cl)cc1 | 4.97 ± 0.06
O=C(O)COc1ccc(Br)cc1/C=N/NC(=O)c1ccc(Cl)cc1 | 8 ± 0.2
O=C(O)COc1ccc(Br)cc1/C=N/NC(=O)c1ccccc1 | 9.03 ± 0.15
Cc1ccc(NCC(=O)N/N=C/c2cc(Br)ccc2OCC(=O)O)cc1 | 4.07 ± 0.12

Further values, each from its own experiment
Structure (SMILES) | tested on | test | conditions | scale | endpoint | value
Cc1ccc(C(C)C)c(O)c1/C=N/NC(=O)c1cc(-c2ccccc2)[nH]n1 | COX-2 |  |  |  | IC50 | 0.043 µM
COc1cc2c(cc1OC)C(=O)C(N1CCN(CCO)CC1)CC2 (stereo not shown) | MurA (Escherichia coli) | enzyme activity, inhibitor |  |  | IC50 | 3.1 µM
CN(C)CCCOc1cc(F)c(-c2c(Cl)nc3ncnn3c2NCC2(C)N=N2)c(F)c1 | HEK293 |  | 1 µM, 4 h, unit not given | relative to: vehicle (DMSO) | acetylated α-tubulin level | 10.5 ± 0.4
O=c1[nH]c(-c2cccc(OCc3ccc(Cl)cc3)c2)nc2ccccc12 | MurA | enzyme activity, inhibitor |  |  | IC50 | 8 µM
C[C@@H](Nc1c(-c2c(F)cc(C#CCCO)cc2F)c(Cl)nc2ncnn12)C(C)(C)C | HEK293 |  | 1 µM, 4 h, unit not given | relative to: vehicle (DMSO) | acetylated α-tubulin level | 3.67 ± 0.34

Excerpt of the above (series 1):
SMILES | IC50 [µM]
O=C(O)COc1ccc(Br)cc1/C=N/NC(=O)c1ccccc1 | 9.03 ± 0.15
